Assay results pooled from the literature.
Protocols differ between the studies behind these lines.

SMILES | test system | setting | how to read | endpoint | value
CCCCCOc1ccc(-c2ccc(-c3ccc(C(=O)N[C@H]4C[C@@H](O)[C@@H](O)NC(=O)[C@@H]5[C@@H](O)[C@@H](C)CN5C(=O)[C@H]([C@@H](C)O)NC(=O)[C@H]([C@H](O)[C@@H](O)c5ccc(O)cc5)NC(=O)[C@@H]5C[C@@H](O)CN5C(=O)[C@H]([C@@H](C)O)NC4=O)cc3)cc2)cc1 | human, plasma | intravenous, 1.5 mg/kg/day maintenance, 18 h post dose | – | Cmax at steady state | 3300 ng/mL
CC(C)c1nc(CN(C)C(=O)N[C@H](C(=O)N[C@@H](Cc2ccccc2)C[C@H](O)[C@H](Cc2ccccc2)NC(=O)OCc2cncs2)C(C)C)cs1 | healthy human volunteers, plasma | oral, dose not given, with: omeprazole plus 2D regimen | – | Cmax | 2260 ng/mL
CC[C@@]1(O)C(=O)OCc2c1cc1n(c2=O)Cc2cc3c(CN(C)C)c(O)ccc3nc2-1 | human patients, plasma | oral, 8 mg weekly, MTD arm, weekly dosing, with: pazopanib | relative to: with pazopanib over alone | Cmax ratio | 1.89
Cc1cnc(C(=O)N[C@H]2CCCCC/C=C\[C@@H]3C[C@@]3(C(=O)NS(=O)(=O)C3CC3)NC(=O)[C@@H]3C[C@@H](Oc4nc5ccccc5c5ccccc45)CN3C2=O)cn1 | healthy human volunteers, plasma | oral, dose not given, with: digoxin plus 2D regimen | – | Cmax | 1390 ng/mL
O[C@H]1CCCN[C@@H]1CCCn1cnc2c(Cl)c(Cl)ccc21 | human, plasma | oral, 100 mg single dose, solution, geometric mean | – | Cmax | 72.3 ng/mL
COc1ccc(C[C@@H]2NC(=O)[C@H]([C@@H](C)O)NC(=O)[C@@H]3[C@@H]4CCN3C(=O)[C@@H]3Cc5cn(c6ccc(F)cc56)CCCCCCN(Cc5ccc(cc5)CCNC(=O)[C@]5(C)CCCN5C2=O)C(=O)CCC(=O)N[C@@H](C)C(=O)N[C@H](CNC(=O)CCCCC[N+](C)(C)C)C(=O)N[C@@H](Cc2cccc(c2)CNC(=O)CO4)C(=O)N3)cc1 | healthy fasted humans, plasma | oral, 10 mg once daily, day 14, geometric mean, with: sodium caprate 360 mg | – | Cmax | 10.6 nM
[O-][S+]1CCc2nc(N3CCC(c4ncc(Cl)cn4)CC3)nc(NC3(CO)CCC3)c21 (stereo not drawn) | human, plasma | oral, 12 mg twice daily, fed, geometric mean | – | Cmax at steady state | 348 nM
COC(=O)N[C@H](C(=O)N1CCC[C@H]1C(=O)Nc1ccc([C@@H]2CC[C@@H](c3ccc(NC(=O)[C@@H]4CCCN4C(=O)[C@@H](NC(=O)OC)C(C)C)cc3)N2c2ccc(C(C)(C)C)cc2)cc1)C(C)C | healthy human volunteers, plasma | oral, dose not given, alone, omeprazole interaction study | – | Cmax | 138 ng/mL
COc1ccsc1CNCC[C@@]1(c2ccccn2)CCOC2(CCCC2)C1 | human, severe hepatic impairment | intravenous, dose-normalised | relative to: normal hepatic function | Cmax ratio | 24%

Some of these lines once more:
SMILES | test system | setting | how to read | endpoint | value
COC(=O)N[C@H](C(=O)N1CCC[C@H]1C(=O)Nc1ccc([C@@H]2CC[C@@H](c3ccc(NC(=O)[C@@H]4CCCN4C(=O)[C@@H](NC(=O)OC)C(C)C)cc3)N2c2ccc(C(C)(C)C)cc2)cc1)C(C)C | healthy human volunteers, plasma | oral, dose not given, alone, omeprazole interaction study | – | Cmax | 138 ng/mL
